Measured values of several laboratories.
± gives the spread as reported.
gag-pol reverse transcriptase: Gag-Pol polyprotein, reverse transcriptase (gag-pol, Human immunodeficiency virus 1, UniProt P03366)
Cytochrome P450 2A13: Cytochrome P450 2A13 (Homo sapiens, UniProt Q16696)
Chain of UniProt Q16696 (whole entry, looked up): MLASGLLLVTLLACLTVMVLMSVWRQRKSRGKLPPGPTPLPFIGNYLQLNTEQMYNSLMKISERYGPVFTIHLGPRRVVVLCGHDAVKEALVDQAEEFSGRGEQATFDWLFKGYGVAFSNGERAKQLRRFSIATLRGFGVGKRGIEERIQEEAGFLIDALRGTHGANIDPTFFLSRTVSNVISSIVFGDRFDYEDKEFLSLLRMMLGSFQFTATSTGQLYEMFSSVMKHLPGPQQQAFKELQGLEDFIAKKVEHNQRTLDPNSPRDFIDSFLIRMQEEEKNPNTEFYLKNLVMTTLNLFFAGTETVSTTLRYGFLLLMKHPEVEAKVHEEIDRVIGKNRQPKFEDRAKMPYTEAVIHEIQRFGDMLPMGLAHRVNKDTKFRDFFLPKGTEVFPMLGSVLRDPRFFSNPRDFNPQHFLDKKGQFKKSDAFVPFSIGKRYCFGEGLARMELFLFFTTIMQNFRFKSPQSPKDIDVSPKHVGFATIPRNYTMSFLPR
Chain of UniProt P30559 (whole entry, looked up): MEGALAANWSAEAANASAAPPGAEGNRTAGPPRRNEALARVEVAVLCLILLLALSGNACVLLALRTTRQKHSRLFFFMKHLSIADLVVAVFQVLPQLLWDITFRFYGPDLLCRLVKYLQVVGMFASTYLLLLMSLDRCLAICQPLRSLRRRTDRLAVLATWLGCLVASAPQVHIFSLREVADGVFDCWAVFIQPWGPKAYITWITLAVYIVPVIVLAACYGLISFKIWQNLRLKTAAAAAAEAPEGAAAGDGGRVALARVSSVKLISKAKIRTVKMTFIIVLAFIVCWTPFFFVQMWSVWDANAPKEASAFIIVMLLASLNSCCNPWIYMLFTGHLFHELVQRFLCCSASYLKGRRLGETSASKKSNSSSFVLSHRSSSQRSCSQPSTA
Chain of UniProt P0AC78 (whole entry, looked up): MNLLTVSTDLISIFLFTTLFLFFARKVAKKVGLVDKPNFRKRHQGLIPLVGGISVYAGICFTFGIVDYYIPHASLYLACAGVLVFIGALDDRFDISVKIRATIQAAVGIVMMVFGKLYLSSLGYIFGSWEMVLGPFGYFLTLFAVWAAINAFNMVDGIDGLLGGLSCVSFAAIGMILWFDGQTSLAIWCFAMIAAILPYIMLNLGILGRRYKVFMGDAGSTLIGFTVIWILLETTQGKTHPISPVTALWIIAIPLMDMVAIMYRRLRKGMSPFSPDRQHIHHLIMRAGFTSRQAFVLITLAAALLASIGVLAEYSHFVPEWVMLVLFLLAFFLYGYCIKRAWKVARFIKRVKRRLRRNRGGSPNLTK
Chain of UniProt O15151 (whole entry, looked up): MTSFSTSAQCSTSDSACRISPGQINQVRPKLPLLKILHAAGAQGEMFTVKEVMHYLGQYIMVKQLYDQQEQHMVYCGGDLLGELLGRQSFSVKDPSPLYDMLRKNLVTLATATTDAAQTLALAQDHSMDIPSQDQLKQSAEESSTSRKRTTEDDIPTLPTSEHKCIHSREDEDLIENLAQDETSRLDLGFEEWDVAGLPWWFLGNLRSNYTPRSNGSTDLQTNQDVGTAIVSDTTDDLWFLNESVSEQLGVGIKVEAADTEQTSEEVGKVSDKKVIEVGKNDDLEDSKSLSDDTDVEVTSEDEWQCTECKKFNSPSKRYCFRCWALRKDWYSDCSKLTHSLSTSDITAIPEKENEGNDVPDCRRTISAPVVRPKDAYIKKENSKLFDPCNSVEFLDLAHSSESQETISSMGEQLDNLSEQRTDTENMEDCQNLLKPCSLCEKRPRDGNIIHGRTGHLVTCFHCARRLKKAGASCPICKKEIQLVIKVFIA
Chain of UniProt P33535 (whole entry, looked up): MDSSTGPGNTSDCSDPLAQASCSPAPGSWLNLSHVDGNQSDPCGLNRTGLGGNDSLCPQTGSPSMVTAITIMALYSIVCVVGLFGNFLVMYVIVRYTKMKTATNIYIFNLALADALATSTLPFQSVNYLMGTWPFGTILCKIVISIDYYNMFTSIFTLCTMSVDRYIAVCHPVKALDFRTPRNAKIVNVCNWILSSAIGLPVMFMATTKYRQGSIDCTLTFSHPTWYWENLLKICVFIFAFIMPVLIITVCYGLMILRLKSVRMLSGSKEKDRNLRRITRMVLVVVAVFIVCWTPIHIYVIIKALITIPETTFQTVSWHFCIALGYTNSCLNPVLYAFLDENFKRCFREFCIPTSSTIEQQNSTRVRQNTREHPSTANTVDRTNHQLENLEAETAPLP
Chain of UniProt Q99436 (whole entry, looked up): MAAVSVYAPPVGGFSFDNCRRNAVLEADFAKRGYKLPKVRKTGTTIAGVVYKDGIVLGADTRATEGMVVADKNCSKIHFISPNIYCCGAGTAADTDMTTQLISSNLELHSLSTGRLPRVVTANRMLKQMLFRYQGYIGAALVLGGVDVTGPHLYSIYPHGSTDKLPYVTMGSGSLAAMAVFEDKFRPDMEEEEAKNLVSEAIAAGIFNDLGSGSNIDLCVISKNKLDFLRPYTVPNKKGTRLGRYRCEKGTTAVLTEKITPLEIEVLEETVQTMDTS
Chain of UniProt P03313 (whole entry, looked up): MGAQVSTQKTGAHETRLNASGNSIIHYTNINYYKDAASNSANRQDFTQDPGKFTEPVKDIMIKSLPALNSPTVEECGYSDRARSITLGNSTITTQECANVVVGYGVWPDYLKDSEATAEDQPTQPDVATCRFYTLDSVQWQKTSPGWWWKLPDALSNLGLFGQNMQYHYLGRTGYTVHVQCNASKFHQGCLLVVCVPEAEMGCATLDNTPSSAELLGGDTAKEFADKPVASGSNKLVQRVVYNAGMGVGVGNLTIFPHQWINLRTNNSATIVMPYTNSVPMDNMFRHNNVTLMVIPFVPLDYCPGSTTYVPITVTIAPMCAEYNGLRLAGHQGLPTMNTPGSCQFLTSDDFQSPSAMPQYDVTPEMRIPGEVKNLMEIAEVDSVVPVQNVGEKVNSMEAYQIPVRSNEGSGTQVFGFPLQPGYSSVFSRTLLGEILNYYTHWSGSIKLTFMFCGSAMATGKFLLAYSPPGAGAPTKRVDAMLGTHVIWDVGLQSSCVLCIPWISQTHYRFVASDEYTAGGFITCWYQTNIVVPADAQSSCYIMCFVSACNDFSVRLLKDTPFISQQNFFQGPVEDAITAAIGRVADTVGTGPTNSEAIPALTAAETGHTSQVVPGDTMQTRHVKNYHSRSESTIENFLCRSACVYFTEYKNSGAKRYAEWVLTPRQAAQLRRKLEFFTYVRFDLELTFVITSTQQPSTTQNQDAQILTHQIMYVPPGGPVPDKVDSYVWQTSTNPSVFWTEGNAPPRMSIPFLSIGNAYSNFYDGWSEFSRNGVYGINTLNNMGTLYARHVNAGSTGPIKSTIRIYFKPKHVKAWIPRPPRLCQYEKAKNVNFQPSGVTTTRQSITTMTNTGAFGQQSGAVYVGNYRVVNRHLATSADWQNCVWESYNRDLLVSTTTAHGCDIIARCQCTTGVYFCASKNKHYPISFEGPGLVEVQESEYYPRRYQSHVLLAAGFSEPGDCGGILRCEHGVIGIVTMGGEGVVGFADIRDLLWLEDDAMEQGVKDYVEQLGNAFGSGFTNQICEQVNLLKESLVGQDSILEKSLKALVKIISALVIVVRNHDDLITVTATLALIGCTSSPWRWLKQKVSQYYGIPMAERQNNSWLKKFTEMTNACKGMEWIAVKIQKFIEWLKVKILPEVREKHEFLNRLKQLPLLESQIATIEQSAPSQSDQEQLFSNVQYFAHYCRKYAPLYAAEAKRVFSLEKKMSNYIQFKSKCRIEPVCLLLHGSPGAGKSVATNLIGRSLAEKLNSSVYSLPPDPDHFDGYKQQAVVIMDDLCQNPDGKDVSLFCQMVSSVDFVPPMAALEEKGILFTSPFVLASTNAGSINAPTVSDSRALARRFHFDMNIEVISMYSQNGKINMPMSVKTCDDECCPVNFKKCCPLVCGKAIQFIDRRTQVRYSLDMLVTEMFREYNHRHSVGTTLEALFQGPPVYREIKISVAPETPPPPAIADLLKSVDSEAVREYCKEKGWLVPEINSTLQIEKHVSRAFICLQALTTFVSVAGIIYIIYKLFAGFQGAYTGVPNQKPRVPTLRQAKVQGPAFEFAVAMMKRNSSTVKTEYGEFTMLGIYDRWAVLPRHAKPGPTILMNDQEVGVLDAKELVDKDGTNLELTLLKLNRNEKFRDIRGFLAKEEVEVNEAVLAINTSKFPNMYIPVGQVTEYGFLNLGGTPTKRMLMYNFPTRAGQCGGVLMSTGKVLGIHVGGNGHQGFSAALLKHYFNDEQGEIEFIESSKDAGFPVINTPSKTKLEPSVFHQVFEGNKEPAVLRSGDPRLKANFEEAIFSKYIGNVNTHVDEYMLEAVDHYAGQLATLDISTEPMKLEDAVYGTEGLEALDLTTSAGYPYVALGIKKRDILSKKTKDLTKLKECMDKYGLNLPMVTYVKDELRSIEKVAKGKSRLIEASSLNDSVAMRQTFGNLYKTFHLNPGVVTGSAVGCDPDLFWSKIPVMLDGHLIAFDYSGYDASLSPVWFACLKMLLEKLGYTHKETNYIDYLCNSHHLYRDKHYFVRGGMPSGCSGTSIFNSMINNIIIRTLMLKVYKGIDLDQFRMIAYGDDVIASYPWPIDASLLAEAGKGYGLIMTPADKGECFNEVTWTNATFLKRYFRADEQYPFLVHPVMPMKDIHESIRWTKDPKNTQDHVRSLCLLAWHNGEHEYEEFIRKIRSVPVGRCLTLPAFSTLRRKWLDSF
Chain of UniProt Q16543 (whole entry, looked up): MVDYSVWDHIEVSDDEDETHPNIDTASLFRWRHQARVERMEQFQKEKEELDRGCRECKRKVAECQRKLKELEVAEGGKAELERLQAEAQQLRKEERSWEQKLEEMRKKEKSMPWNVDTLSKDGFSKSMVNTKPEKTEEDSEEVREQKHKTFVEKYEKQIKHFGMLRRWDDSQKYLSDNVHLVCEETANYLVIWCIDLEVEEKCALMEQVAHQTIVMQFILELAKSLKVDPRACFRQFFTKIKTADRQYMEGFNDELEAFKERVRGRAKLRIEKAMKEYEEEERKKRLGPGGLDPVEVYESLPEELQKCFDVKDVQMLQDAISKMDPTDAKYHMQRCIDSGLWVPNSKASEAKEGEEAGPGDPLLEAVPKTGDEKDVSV

| Compound | target | assay | test system | setting | IC50 [µM] |
| --- | --- | --- | --- | --- | --- |
| CN(C)C(=O)C(CCN1CCC(O)(c2ccc(Cl)cc2)CC1)(c1ccccc1)c1ccccc1 | Calcium-activated potassium channel subunit alpha-1, with LRRC26 γ1 subunit (KCNMA1, Homo sapiens, UniProt Q12791) | BK channel conductance, inhibitor, inside-out patch clamp | – | BKα/γ1, Vm -10 mV, nominally Ca2+-free | 15.8 ± 5.9 |
| COc1ccc(-c2ccc(Cc3cnc(Nc4ccc(C#N)cc4)o3)cc2)cc1 | gag-pol reverse transcriptase | enzyme activity, inhibitor | HIV-1 | – | > 10 |
| CO[C@H]1[C@H](O[C@H]([C@H]2O[C@@H](n3ccc(=O)[nH]c3=O)[C@H](O)[C@@H]2O)[C@H](NCCCNC(=O)[C@@H](NC(=O)[C@@H](NC(=O)N[C@H](C(=O)O)C(C)C)[C@@H]2CCN=C(N)N2)[C@@H](OC(=O)CCCCCCCCCCCCN(O)C(=N)N)C(C)C)C(=O)O)O[C@H](CN)[C@H]1O | Undecaprenyl-phosphate alpha-N-acetylglucosaminyl 1-phosphate transferase (wecA, Escherichia coli, UniProt P0AC78) | enzyme activity, inhibitor | – | – | 0.09 ± 0.018 |
| C#Cc1cc2ccc3cccc4ccc(c1)c2c34 | Cytochrome P450 2A13 | enzyme activity, inhibitor | – | 20 min, pH 7.4 | > 80 |
| C[C@H]1CN(c2n[nH]c3nc(N[C@H]4CC[C@H](NS(=O)(=O)CCC(F)(F)F)CC4)ncc23)CCO1 | Hsp90 co-chaperone Cdc37 (CDC37, Homo sapiens, UniProt Q16543) | biochemical | – | – | ≥ 20 |
| O=C1CSC(c2cccc(Br)c2)N1c1nc(-c2ccc(S(=O)(=O)N3CCCC3)cc2)cs1 (centres unmarked) | gag-pol reverse transcriptase | – | – | – | > 4 |
| CC#Cc1ccc2c(ccc3ccccc32)c1 | Cytochrome P450 2A13 | enzyme activity, inhibitor | – | 20 min, pH 7.4 | > 180 |
| CC[C@H](C)[C@H](NC(=O)[C@H](CCCCN)NC(=O)[C@H](CC(N)=O)NC(=O)[C@H](Cc1ccccc1)NC(=O)[C@H](C)NC(=O)[C@H](C)NC(=O)[C@@H](NC(=O)[C@H](CC(=O)O)NC(=O)[C@@H](N)C(C)C)[C@@H](C)CC)C(=O)O | Uncharacterized protein (Equus caballus, UniProt Q38RB9) | peptide binding, competitor, competitive radioligand binding | purified horse MHC class I | pH 7 | 0.048 |
| COc1cc(Nc2ncc(F)c(Nc3ccc4c(n3)NC(=O)C(C)(C)O4)n2)cc(OC)c1OC | Muscarinic acetylcholine receptor M3 (CHRM3, Homo sapiens, UniProt P20309) | – | – | – | > 10 |
| NC(N)=NC(=O)c1nc(Cl)c(N2CCCCCC2)nc1N | Genome polyprotein, 3D RNA polymerase (Coxsackievirus B3, UniProt P03313) | RNA polymerase activity, inhibitor, single AMP incorporation | – | Mg2+ preincubation | > 500 |
| C[C@@H](NC(=O)[C@@H](N)Cc1ccc(O)cc1)C(=O)NCC(=O)N[C@@H](Cc1ccccc1)C(=O)N(C)CCC[C@@]1(c2ccc(F)cc2)OCc2cc(C#N)ccc21 | Mu-type opioid receptor (Oprm1, Rattus norvegicus, UniProt P33535) | – | – | – | 0.2 |
| COc1ccc(C[C@H](NC(=O)[C@H](C)NC(=O)CN2CCOCC2)C(=O)N[C@@H](CC2CCC(C)CC2)C(=O)[C@@]2(C)CO2)cc1 (some centres unmarked) | Proteasome subunit beta type-7 (PSMB7, Homo sapiens, UniProt Q99436) | inhibitor, competitive ABPP | Raji cell lysate | constitutive proteasome β2c | 6.42 |
| CC(C)C[C@@H](CNC(=O)N1CCC[C@H]1C(N)=O)NC(=O)NC[C@H](CC(C)C)NC(=O)[C@H](C)NC(=O)[C@H](Cc1c[nH]c2ccccc12)NC(=O)[C@H](Cc1ccc(O)cc1)NC(=O)[C@H](CCC(=O)O)NC(=O)[C@H](C)NC(=O)[C@H](Cc1ccccc1)NC(=O)[C@H](CO)NC(=O)[C@@H](N)[C@@H](C)O | Protein Mdm4, with p53 (MDM4, Homo sapiens, UniProt O15151) | p53 binding, TR-FRET | – | – | 0.116 |
| CN1Cc2cc(Cl)ccc2-n2c(nnc2C2CCN(c3ccccn3)CC2)C1 | Oxytocin receptor (OXTR, Homo sapiens, UniProt P30559) | binding | – | – | > 10 |
